Assay results from different studies.
Parts stem from different laboratories: compare values within a part only. Positions count from the first letter of the parent shown.

Sample 1 — target: CCND3, cyclin fold, Cln2 fusion (human); technique: yeast growth competition, sequencing; sample: yeast; notes: weak parent motif; reference: not given; direction: higher = stronger binding; quantity: normalised enrichment score
Starting sequence: BRCA2 docking peptide (human); PSIKRNLLNEFDR
K4V: 0.136
P1Y: 0.168
S2T: 0.161
P1V: 0.143
L7Y: 0.0881
L7G: 0.0702
I3A: 0.152
R13V: 0.124
N6A: 0.0857
E10M: 0.0406
R5G: 0.0728
S2A: 0.128
L7M: 0.109
R5E: 0.121
D12I: -0.0255
L8H: 0.146

Sample 2 — technique: DHFR PCA, deep sequencing; sample: yeast; with: (+)-ABA 0.11 µM; reference: wild-type fitted maximum; direction: higher = stronger binding; quantity: relative binding score
Target: ABI1, truncated, D143A, DHFR fusion (Arabidopsis thaliana)
Notes: methotrexate growth selection, single substitutions
Starting sequence: PYL1, truncated, DHFR fusion (Arabidopsis thaliana); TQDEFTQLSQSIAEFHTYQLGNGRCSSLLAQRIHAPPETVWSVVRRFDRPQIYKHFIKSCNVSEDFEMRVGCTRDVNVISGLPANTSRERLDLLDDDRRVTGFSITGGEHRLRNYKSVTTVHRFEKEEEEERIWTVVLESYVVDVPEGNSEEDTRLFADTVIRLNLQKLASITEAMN; partner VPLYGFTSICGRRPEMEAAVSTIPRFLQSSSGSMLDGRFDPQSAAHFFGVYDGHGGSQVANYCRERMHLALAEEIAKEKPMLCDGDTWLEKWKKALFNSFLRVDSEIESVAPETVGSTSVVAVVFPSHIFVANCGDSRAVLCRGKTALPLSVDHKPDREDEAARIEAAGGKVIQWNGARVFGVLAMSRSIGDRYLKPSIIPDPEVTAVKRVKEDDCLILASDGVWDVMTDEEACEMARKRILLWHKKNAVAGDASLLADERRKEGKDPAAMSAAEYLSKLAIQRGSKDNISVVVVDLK
N149L: 26.5%
I133V: 61%
A30N: -3.04%
G102S: 10.2%
R99F: 73.5%
T160R: -1.9%
D75W: 32.1%
T160F: 55.4%
N165W: 4.59%
I105H: -2.52%
T135A: 10.4%
T39S: 7.81%
E129T: 34.2%
N149R: 22.4%
E127F: 24.3%
T120V: -5.57%
N77M: 43.1%

Sample 3 — technique: protein-binding microarray; form: double-stranded DNA, one strand shown; sample: in vitro; concentration: 2200 nM top; notes: 60-bp whole probe; with: salmon DNA 0.4 mg/ml; reference: random background probes; direction: higher = stronger binding; quantity: fitted relative affinity; shared flanks, not repeated: GCCTAGCAC … GTCTTGATTCGCTTGACGCTGCTG
Target: Interferon regulatory factor 7, full length, phosphomimetic (IRF7, Homo sapiens, UniProt Q92985, residues 1-503, S471D/S472D/S475D/S476D/S477D/S483D/S484D/S487D)
Target sequence (chain): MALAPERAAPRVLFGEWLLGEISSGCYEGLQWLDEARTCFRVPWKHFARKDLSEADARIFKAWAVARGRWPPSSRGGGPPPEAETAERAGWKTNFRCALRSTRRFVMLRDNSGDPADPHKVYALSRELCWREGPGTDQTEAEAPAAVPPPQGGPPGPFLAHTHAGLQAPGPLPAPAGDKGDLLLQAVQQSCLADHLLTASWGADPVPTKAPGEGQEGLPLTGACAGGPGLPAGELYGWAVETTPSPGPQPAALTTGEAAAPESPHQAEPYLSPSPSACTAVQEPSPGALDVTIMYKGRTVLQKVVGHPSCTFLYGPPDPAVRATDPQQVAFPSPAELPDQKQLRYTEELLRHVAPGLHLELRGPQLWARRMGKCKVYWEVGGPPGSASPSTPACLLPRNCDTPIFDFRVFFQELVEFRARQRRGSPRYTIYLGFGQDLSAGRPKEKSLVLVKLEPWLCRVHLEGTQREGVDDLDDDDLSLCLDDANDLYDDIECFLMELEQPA
GGCGGTTTCGACACTGGGGACGTGCTA: 2.21 z-score
TTAGAGTTCAGTTCCGATTAGTGCTAG: 0.654 z-score
ATAGGTATCCTACTGCTTTAGTGCTAG: 0.688 z-score
GACGATTTCAGTCTCGGGACGTGCTAG: 0.834 z-score
TTAGATATCAGTTTCGACTAGTGCTAG: 2.95 z-score
AGACATGACACCACTCCTGAGTGCTAG: 0.363 z-score
TTAGGTCTCCTGTTCCTTTAGTGCTAG: 1.11 z-score
TTAGGTTCCGGACTGGGTTAGTGCTAG: 0.204 z-score
TTAGGTATCCAACTGCTTTAGTGCTAG: 0.415 z-score
TTAGATATCAGTTGCGATTAGTGCTAG: 0.508 z-score
GACGGTCTCTTTTTCCTGACGTGCTAG: 1.3 z-score
TTAGATTTCGTGTTTCGATTAGTGCTA: 5.28 z-score
TGCTATACCACTCTTGCTTTGTGCTAG: 1.31 z-score
TCACCACTTTCTTTTGCACTGTGCTAG: 3.06 z-score
GCCTTTTATTTGAAAGAAATGTGCTAG: 0.247 z-score
GACGAACTGAGTCCCGAGACGTGCTAG: 0.235 z-score
CTTTTTTTCCGAGTGAGTAAGTGCTAG: 1.87 z-score
CACGGTATCCTTCTCCTGACGTGCTAG: 1.1 z-score
GACGTTATCGGACTGGGGACGTGCTAG: -0.056 z-score

Sample 4 — technique: RNA Bind-n-Seq; form: RNA; sample: in vitro; concentration: 200 nM; notes: whole 134-nt RNA, ends assumed; with: 150 mM KCl; reference: input library; direction: higher = stronger binding; quantity: log2 enrichment
Target: Ras GTPase-activating protein-binding protein 1, full length (G3BP1, Homo sapiens, UniProt Q13283)
Sequence of UniProt Q13283 (whole entry, looked up): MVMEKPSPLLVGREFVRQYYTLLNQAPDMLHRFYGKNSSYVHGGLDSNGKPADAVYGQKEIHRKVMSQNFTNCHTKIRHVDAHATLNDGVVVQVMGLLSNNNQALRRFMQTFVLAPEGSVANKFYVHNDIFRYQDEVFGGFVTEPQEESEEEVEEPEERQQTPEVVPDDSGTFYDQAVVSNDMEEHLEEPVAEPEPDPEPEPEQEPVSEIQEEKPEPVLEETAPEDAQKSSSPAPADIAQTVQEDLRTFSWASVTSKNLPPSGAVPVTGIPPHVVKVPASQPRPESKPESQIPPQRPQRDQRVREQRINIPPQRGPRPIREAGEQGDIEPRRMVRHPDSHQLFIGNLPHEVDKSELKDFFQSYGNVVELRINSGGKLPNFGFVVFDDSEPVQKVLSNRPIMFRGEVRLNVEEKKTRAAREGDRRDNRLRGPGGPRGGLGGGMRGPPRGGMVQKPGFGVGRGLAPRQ
Shared flanks, not repeated: GGGAGUUCUACAGUCCGACGAUC … UGGAAUUCUCGGGUGUCAAGG
CACAGACAACACGCACCCACACAGACACAGAGGGAAGGGGUUGGGAUGGGGACAGGGUGCACAGCAGGGCGGGGUAGGACCCCAGCCCCU: 1.85
CUCAAGUCCUGUGCUACACAUCGUAUGUACCGAAUCGGGGAGGGAGGGGAGGGGAAAGUAUUAUGUUACGCCGUUCGGAUCUGCACUUCC: 1.43
UGGCCCUGGUGGCAUGCGGGGAGGAAGAGGUGGCCUCAUGGAUCGUAGUGGUCCCGGUGGAAUGUUCAGAGGUGGCCGUGGUGGAGACAG: 0.531
GUCCUGUGCUACACAUCGUAUGUACCGAAUCGGGAGGGAAAAAAAGGGUUUUUUUGGGAAAGUAUUAUGUUACGCCGUUCGGAUCUGCAC: -0.44
CACAGACAACACGCACCCACACAGACACAGAGGGAAGGGGUUGGGUUGGGGACAGGGUGCACAGCAGGGCGGGGUAGGACCCCAGCCCCU: 1.87
UCCUGUGCUACACAUCGUAUGUACCGAAUCGGGGAAAAAAGGAAAAAAGGGAAAAAAGGAAAGUAUUAUGUUACGCCGUUCGGAUCUGCA: -0.401
UGGCCCUGGUGGCAUGCGGGGAGCAAGAGGUGGCCUCAUGGAUCGUGGUGGUCCCGGUGGAAUGUUCAGAGGUGGCCGUGGUGGAGACAG: 0.172
CACAGACAACACGCACCCACACAGACACAGAGGGAAGGGGUUGGGAUGGGGACAGGGUGCACAGCAGGGCGGGGUAGGACCCGAGCCCCU: 1.86
UAACUUUAGAGGAGGAUCUGAUGGAUAUGGCAGUGGACGUGGAUUUGGGGAUGGCUAUAAUGGGUAUGAAGGAGGACCUGGAGGUGGCAA: 0.173

Repeated from above (sample 2):
D75W: 32.1%
N149L: 26.5%
T120V: -5.57%
T39S: 7.81%
E127F: 24.3%
T135A: 10.4%
N149R: 22.4%
I133V: 61%
N77M: 43.1%
I105H: -2.52%
